Results pooled from the literature.
Protocols differ between the studies behind these lines. Values joined by “and” are separate records of one study, mostly repeats; a detail may differ. ± marks the error that the study gave. ≈ marks a conversion by molar mass, not a printed value.

Compound | organism | test | test system | setting | how to read | quantity | value
COCCNC(=O)c1cc(-c2ccoc2)ccc1OCCc1cccc(F)c1 | Mycobacterium tuberculosis | growth | H37Rv-LP | 120 h |  | IC90 | 8.6 ± 0.8 µM
COc1ccc(-c2cc(C(F)(F)F)c3c(N)c(C(=O)N4CCCC4(C)C)sc3n2)cc1 | Mycobacterium tuberculosis |  | H37Rv wild type | 120 h |  | IC90 | inactive
O=c1[nH]c2cc(CO)c(Cl)cc2c(=O)n1Cc1cncnc1 | Mycobacterium tuberculosis |  | PptT conditional knockdown |  |  | MIC90 | 7.28 µM (≈ 2.32 µg/mL)
CCOC(=O)c1c(C)nc(NCCCNc2ccnc3cc(Cl)ccc23)nc1C | parainfluenza virus 3 | viral replication | Vero |  |  | EC50 | > 100 µM
COc1ccc(-c2cc(C(F)(F)F)c3c(N)c(C(=O)Nc4cccc(C)c4C)sc3n2)cn1 | Mycobacterium tuberculosis | growth inhibition | H37Rv LepB under-expressing |  |  | IC50 | 0.5 ± 0.2 µM
O=c1c2cc(Br)ccc2[nH]c(=S)n1Cc1cccnc1 | Mycobacterium tuberculosis |  | PptT conditional knockdown |  |  | MIC90 | 0.84 µM (≈ 0.293 µg/mL)
COc1ccc(-c2cc(C(F)(F)F)c3c(N)c(C(=O)N4CC(C)OC(C)C4)sc3n2)cc1 (stereo not shown) | Mycobacterium tuberculosis |  | H37Rv wild type | 120 h |  | IC90 | inactive
COc1ccc2cc1Oc1ccc(cc1)C[C@H]1c3cc(c(OC)cc3CCN1C)Oc1c(OC)c(OC)cc3c1[C@H](C2)N(C)CC3 | Influenza A virus | viral replication | MDCK, A/Fort Monmouth/1/1947 (H1N1) | 48 h |  | IC50 | 4.1 ± 0.69 µM
Cc1nc(NCCNc2ccnc3cc(Cl)ccc23)nc(-c2ccccc2[N+](=O)[O-])c1C(=O)OC(C)C | parainfluenza virus 3 | viral replication | Vero |  |  | EC50 | > 20 µM
CC(C)[C@H](NC(=O)c1ccccc1NC(=O)c1ccc(O)cc1)C(=O)N[C@H](CO)C(C)C | human coronavirus 229E | viral replication, plaque reduction | MRC-5 | 6 days |  | EC50 | > 50 µM
CCC(CC)COC(=O)[C@H](C)N[P@](=O)(OC[C@H]1O[C@@](C#N)(c2ccc3c(N)ncnn23)[C@H](O)[C@@H]1O)Oc1ccccc1 | Influenza A virus H1N1 | ELISA of viral NP | MDCK, A/Puerto Rico/8/34 | concentration not given |  | anti-influenza activity | inactive
O=c1c2cc(Cl)ccc2[nH]c(=S)n1Cc1cncc(-c2nnn[nH]2)c1 | Mycobacterium tuberculosis |  | PptT conditional knockdown |  |  | MIC90 | 12 µM (≈ 4.46 µg/mL)
COC1CN(C(=O)c2sc3nc(-c4ccccc4)ccc3c2N)C1 | Mycobacterium tuberculosis | growth inhibition | H37Rv LepB under-expressing |  |  | IC50 | 7.6 ± 3 µM
COCCC(c1cccnc1)n1c(=S)[nH]c2ccc(Cl)cc2c1=O (stereo not shown) | Mycobacterium tuberculosis |  | PptT conditional knockdown |  |  | MIC90 | > 100 µM
COc1ccc(-c2cc(C(F)(F)F)c3c(N)c(C(=O)NCc4cccc(C)c4C)sc3n2)cc1 | Mycobacterium tuberculosis | growth inhibition | H37Rv LepB under-expressing |  |  | IC50 | 0.8 ± 0.1 µM
O=C(N[C@H](CO)[C@H](O)c1ccc([N+](=O)[O-])cc1)C(Cl)Cl | Burkholderia cepacia |  | 6349 |  |  | MIC | 8 µg/mL
CCc1ccc(OCCc2cccc(F)c2)c(C(N)=O)c1 | Mycobacterium tuberculosis |  | H37Rv-LP |  | reference: HepG2 CC50 over Mtb IC90 | selectivity index | 28
CC(C)c1ccc2[nH]c(=S)n(Cc3cccnc3)c(=O)c2c1 | Mycobacterium tuberculosis |  | PptT conditional knockdown |  |  | MIC90 | 7.6 µM (≈ 2.37 µg/mL)
COc1ccc(-c2cc(C(F)(F)F)c3c(N)c(C(=O)Nc4ccc(C)c(C)c4)sc3n2)cc1 | Mycobacterium tuberculosis |  | H37Rv wild type | 120 h |  | IC90 | inactive

Compound | organism | test | test system | setting | how to read | quantity | value
Cc1nc(NCCCNc2ccnc3cc(Cl)ccc23)nc(-c2cccc([N+](=O)[O-])c2)c1C(=O)OC(C)C | parainfluenza virus 3 | viral replication | Vero |  |  | EC50 | > 20 µM
NC(=O)c1cc(C2CC2)ccc1OCCc1cccc(F)c1 | Mycobacterium tuberculosis |  | H37Rv-LP |  | reference: HepG2 CC50 over Mtb IC90 | selectivity index | 44
NC(=O)c1ncn([C@@H]2O[C@H](CO)[C@@H](O)[C@H]2O)n1 | lymphocytic choriomeningitis virus | reporter gene | BHK-21 | 50 µM, minigenome, Gaussia luciferase | reference: DMSO | reporter activity | 53.1%
O=c1[nH]c2cc(CO)c(Cl)cc2c(=O)n1Cc1cccnc1 | Mycobacterium tuberculosis |  | PptT conditional knockdown |  |  | MIC90 | 0.57 µM (≈ 0.181 µg/mL)
COc1ccc(-c2cc(C(F)(F)F)c3c(N)c(C(=O)N4CC5(CCOC5)C4)sc3n2)cc1 | Mycobacterium tuberculosis |  | H37Rv wild type |  | reference: HepG2 IC50 over M. tuberculosis IC90 | selectivity index | < 1
CC(=O)NCCC(c1cccnc1)n1c(=S)[nH]c2ccc(Cl)cc2c1=O (stereo not shown) | Mycobacterium tuberculosis |  | PptT conditional knockdown |  |  | MIC90 | > 100 µM
O=C(O)C1=CC(=C(c2ccc(O)c(C(=O)O)c2)c2ccc(O)c(C(=O)O)c2)C=CC1=O | lymphocytic choriomeningitis virus | reporter gene | BHK-21 | 50 µM, minigenome, Gaussia luciferase | reference: DMSO | reporter activity | 156%
CNC(=O)c1cc(C(F)F)ccc1OCCc1cccc(F)c1 | Mycobacterium tuberculosis | growth | H37Rv-LP | 120 h |  | IC90 | 2.4 ± 0.25 µM
NC(=O)c1ncn([C@@H]2O[C@H](CO)[C@@H](O)[C@H]2O)n1 | human coronavirus 229E | viral replication | Huh-7 |  |  | EC50 | 24.8 ± 7.7 µM
CNC(=O)c1cc(C)ccc1OCCc1cc(F)cc(F)c1 | Mycobacterium tuberculosis | growth | H37Rv-LP | 120 h |  | IC90 | 0.36 ± 0.32 µM
OC(Cn1cncn1)(Cn1cncn1)c1ccc(F)cc1F | Saccharomyces cerevisiae | cell growth | Pdr5 deleted, Cdr1 overexpressed | 2^4.322 µg/mL |  | OD600 | 0.889 and 0.966 and 1
Cc1ccc(OCCc2cccc(F)c2)c(C(N)=O)c1 | Mycobacterium tuberculosis | growth | H37Rv-LP | 120 h |  | IC90 | 0.62 ± 0.18 µM
O=c1[nH]c2ccc(Cl)cc2c(=O)n1Cc1cccnc1 | Mycobacterium tuberculosis |  | PptT conditional knockdown |  |  | MIC90 | 16.3 µM (≈ 4.69 µg/mL)
COc1ccc(C(=O)Nc2ccccc2C(=O)N[C@H](C(=O)N[C@H](CO)C(C)C)C(C)C)cc1 | human coronavirus 229E | viral replication, plaque reduction | MRC-5 | 6 days |  | EC50 | > 50 µM
Cc1ccc(OCCc2ccc(C3CC3)cc2)c(C(N)=O)c1 | Mycobacterium tuberculosis |  | H37Rv-LP |  | reference: HepG2 CC50 over Mtb IC90 | selectivity index | 85
CC[C@H](C)[C@H](NC(=O)[C@H](C)NC(=O)[C@H](CCCNC(=N)N)NC(=O)[C@H](CCCNC(=N)N)NC(=O)[C@H](CCCNC(=N)N)NC(=O)[C@H](CCCNC(=N)N)NC(=O)[C@H](CCCNC(=N)N)NC(=O)[C@@H](N)CCCNC(=N)N)C(=O)N[C@@H](CO)C(=O)NCC(=O)N[C@@H](CO)C(=O)N[C@@H](CC(C)C)C(=O)N[C@H](C(=O)N[C@H](C(=O)N[C@@H](CC(C)C)C(=O)N[C@@H](Cc1ccccc1)C(=O)NCC(=O)N[C@@H](Cc1ccc(O)cc1)C(N)=O)[C@@H](C)O)C(C)C | Gram-negative ESKAPE bacteria |  |  | range over Gram-negative species |  | MIC | 2 to 8 µM
CCC(NC(=O)c1sc2nc(-c3ccc(OC)cc3)cc(C(F)(F)F)c2c1N)c1ccccc1 (stereo not shown) | Mycobacterium tuberculosis |  | H37Rv wild type |  | reference: HepG2 IC50 over M. tuberculosis IC90 | selectivity index | > 135
Cc1cnc(OCCc2cccc(F)c2)c(C(N)=O)c1 | Mycobacterium tuberculosis |  | H37Rv-LP |  | reference: HepG2 CC50 over Mtb IC90 | selectivity index | 1
